Results of several laboratories.
Parts stem from different laboratories: compare values within a part only. Changes are numbered by the printed parent chain.

Block 1
Target: Interferon regulatory factor 7, full length, phosphomimetic (IRF7, Homo sapiens, UniProt Q92985, residues 1-503, S101K/S471D/S472D/S475D/S476D/S477D/S483D/S484D/S487D)
Chain of UniProt Q92985 (whole entry, unmodified, looked up): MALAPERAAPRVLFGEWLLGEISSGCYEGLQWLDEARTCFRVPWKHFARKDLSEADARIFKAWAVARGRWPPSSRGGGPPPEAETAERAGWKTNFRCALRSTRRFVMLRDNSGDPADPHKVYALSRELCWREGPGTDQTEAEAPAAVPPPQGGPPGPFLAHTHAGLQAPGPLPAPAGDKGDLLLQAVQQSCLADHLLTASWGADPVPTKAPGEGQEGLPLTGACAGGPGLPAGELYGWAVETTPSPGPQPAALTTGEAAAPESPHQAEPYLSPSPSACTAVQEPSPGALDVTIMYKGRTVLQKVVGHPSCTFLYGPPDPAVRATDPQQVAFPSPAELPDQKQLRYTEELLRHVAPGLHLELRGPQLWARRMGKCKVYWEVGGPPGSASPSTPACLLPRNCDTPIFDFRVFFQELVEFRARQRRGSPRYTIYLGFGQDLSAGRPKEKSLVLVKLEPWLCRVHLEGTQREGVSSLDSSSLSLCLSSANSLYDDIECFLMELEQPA
Method: protein-binding microarray
Form: double-stranded DNA, one strand shown
Matrix: in vitro
Tested at: 250 nM
Notes: 60-bp whole probe
Together with: salmon DNA 0.4 mg/ml
Relative to: random background probes
Direction: higher = stronger binding
Endpoint: log fluorescence
Constant ends, left off below: GCCTAGCAC … GTCTTGATTCGCTTGACGCTGCTG
TTATATATCAGACTGGATTAGTGCTAG: 0.284 z-score
TTAGATTTCAGTCTCGATTCGTGCTAG: 5.25 z-score
TTAGATTTAAGTCTCGATTAGTGCTAG: 1.36 z-score
TTAGGACTGGACTTTCTGTTAGTGCTA: -0.292 z-score
TCATATATGCATGTAAAACTGTGCTAG: 0.278 z-score
GACCAACTGGGGTTTCGAGACGTGCTA: 2.16 z-score
TCATATATTATATATACAACTGTGCTA: 0.86 z-score
GACGGGCTGGGGACTGGGGACGTGCTA: -0.848 z-score
TCATCCTTCTGACATCAAACTGTGCTA: 0.81 z-score
GACGATCTCCGTATCGAGACGTGCTAG: -0.034 z-score
GACCGTATCGGACTGGGGACGTGCTAG: 0.37 z-score
TCATTTCTCTTTCACTAACTGTGCTAG: 3.23 z-score
ATAGGTTTCGGACTGGGTTAGTGCTAG: 3.77 z-score
GACGGTATCGGGTATCAGGACGTGCTA: 0.192 z-score
TGAGGTTTCGGTTTCGGTTAGTGCTAG: 14.6 z-score
GACGGCTTCGGGACTGGGGACGTGCTA: -0.683 z-score
GACGGACTGGGTACCGGGACGTGCTAG: -0.303 z-score
GATGGAAACTTAAACTAGAAAGTGCTA: 0.0723 z-score
TTAGATCTCAGTATAGATTAGTGCTAG: 0.0796 z-score

Block 2
Target: Sal-like protein 4, full length isoform B (SALL4, Homo sapiens, UniProt Q9UJQ4-2, residues 1-616)
Method: universal PBM
Form: double-stranded DNA, one strand shown
Matrix: in vitro
Tested at: not given
Notes: 8-mer, flanks averaged, mean of replicates
Direction: higher = stronger binding
Endpoint: E-score
CTCTAATA: 0.335
TAACAGGA: 0.174
CTCGTGAA: 0.129
CGGTCAAG: -0.183
GTATCGCA: -0.0774
AAAGCCTC: -0.0508
ACACAACC: -0.0502
GAGTTGCA: -0.0623
AGCCTGTA: 0.0308
ACTCCTCA: -0.0641
TAAATTCA: 0.304
TGATCTAA: 0.185
AAGAAATT: 0.282
TCTTTAAA: 0.226
AGTTACAG: 0.0315
CCCATGGG: -0.284
GAGAGAAC: -0.256
TATTAGAA: 0.357
AAGCCGCG: -0.218
CCCGAAGA: -0.089
AGGCCCCC: -0.406

Block 3
Target: UBE2V1 UBC core domain (UniProt Q13404)
Chain of UniProt Q13404 (whole entry, looked up): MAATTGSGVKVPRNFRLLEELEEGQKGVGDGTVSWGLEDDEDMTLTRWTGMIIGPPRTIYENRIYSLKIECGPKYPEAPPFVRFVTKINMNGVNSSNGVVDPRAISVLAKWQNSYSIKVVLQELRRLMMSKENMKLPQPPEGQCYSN
Method: yeast two-hybrid
Matrix: yeast
Notes: mostly zero background
Relative to: not given
Direction: higher = stronger interaction
Endpoint: lacZ reporter activity
B1: RNF19A RING domain (UniProt Q9NV58); chain ISKQIGDFIECPLCLLRHSKDRFPDIMTCHHRSCVDCLRQYLRIEISESRVNISCPECTERFNPHDIR
B2: DZIP3 RING domain (UniProt Q86Y13); chain PDEEEEEEEPCVICHENLSPENLSVLPCAHKFHAQCIRPWLMQQGTCPTCRLHVLLPEEFP
B3: MAP3K1 RING domain (UniProt Q13233); chain NSIKDEEEQMCPICLLGMLDEESLTVCEDGCRNKLHHHCMSIWAEECRRNREPLICPLCRSKWRSHDFYS
KLRKLKEAMLCMVCCEEEINSTFCPCGHTVCCESCAAQLQSCPVCRSRVEHVQHVY (MYLIP RING domain (UniProt Q8WY64)): 0
B1 (RNF19A RING domain): 0
AMYLQENGIDCPKCKFSYALARGGCMHFHCTQCRHQFCSGCYNAFYAKNKC (RNF31 RING domain (UniProt Q96EP0)): 0
B2 (DZIP3 RING domain): 0
PEDRESLKSACVVCLSSFKSCVFLECGHVCSCTECYRALPEPKKCPICRQAITRVIPLY (MUL1 RING domain (UniProt Q969V5)): 0
B3 (MAP3K1 RING domain): 0
GSDDEEIPFKCFICRQSFQNPVVTKCRHYFCESCALQHFRTTPRCYVCDQQTNGVFNPA (RNF113A RING domain (UniProt O15541)): 0

Block 4
Target: Phosphate system positive regulatory protein PHO4, full length, GST-tagged (PHO4, Saccharomyces cerevisiae, UniProt P07270, residues 1-312)
Method: competition protein-binding microarray
Form: double-stranded DNA, one strand shown
Matrix: in vitro
Tested at: 2 µM
Notes: whole 60-bp probe, lowest competitor level
Together with: Cbf1 competitor, 0.05 µM
Direction: higher = stronger binding
Endpoint: fluorescence intensity
Constant ends, left off below: … GTCTTGATTCGCTTGACGCTGCTG
Construct (chain): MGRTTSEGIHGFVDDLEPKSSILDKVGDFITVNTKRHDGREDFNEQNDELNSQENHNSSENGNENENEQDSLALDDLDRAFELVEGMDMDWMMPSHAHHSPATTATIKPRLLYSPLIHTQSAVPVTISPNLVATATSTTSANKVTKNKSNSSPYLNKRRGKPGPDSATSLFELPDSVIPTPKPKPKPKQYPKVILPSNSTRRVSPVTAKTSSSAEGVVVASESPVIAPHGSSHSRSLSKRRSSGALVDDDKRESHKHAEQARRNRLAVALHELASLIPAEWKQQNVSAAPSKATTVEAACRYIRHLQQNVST
AAAGCGGTAATTTGGCTCGTGGGTGCAGATATCTAT: 11100 a.u.
GTCTTGTCTCATTGGCACGTGGGTGTCCCCACTTCA: 19100 a.u.
GTCCCAAGCAGCTTCATCGTGATGGTCTCCTTCAGG: 4850 a.u.
ATAGTTTGAACCGGTCCCGTGTGTTAGTGGTAGGAC: 5880 a.u.
TTGTTTTTTGTGTGGCATGTGCAGCGAGCGATGAGT: 12100 a.u.
CTTTCCCGATCTTGATGCGTGGGTGTAGCACATTTG: 8620 a.u.
CTTGGGCCCTATCGGCACGCTAAAGATGCTTGTGGA: 6170 a.u.
AGCTAAGCGTCTACCCACGTAACAAACAATCTTGCC: 6720 a.u.
CTTTCCCGATCTTGTGATGTGGGTGTAGCACATTTG: 5560 a.u.
AAATTACTAAGTTGTCACTCGACTTACCCCGTATGA: 3310 a.u.
CGGGGTTAAGTTTGCGCTGTGGGTGGCTTGCAGCAG: 4360 a.u.
CGTCCTAGCGATTGATGAGTGGGTGCCATGAGGAAG: 6110 a.u.
GCACTTCGCATTAAGCGCGTGAAACTATTGGCTCTC: 4940 a.u.
TTTCCTCTCCTTCTCTGCGTGCTTTCAAATCTAATT: 8630 a.u.
GTCTTGTCTCATTGATGTGTGGGTGTCCCCACTTCA: 4960 a.u.
GTCTTGTCTCATTGGCTCGTGGGTGTCCCCACTTCA: 11600 a.u.
AAATTACTAAGTTGATTCGTGGGTGACGCCGTATGA: 6640 a.u.

Block 5
Target: CCNE1, cyclin fold, Cln2 fusion (human)
Method: yeast growth competition, sequencing
Matrix: yeast
Notes: strong parent motif
Relative to: not given
Direction: higher = stronger binding
Endpoint: normalised enrichment score
Starting sequence: PKMYT1 docking peptide (human); SFEPRNLLSLFED
D13V: 1.68
F11V: 0.248
E3L: 1.23
F2L: 1.3
L7W: 0.589
L8E: -3.26
E3A: 1.92
N6R: 1.12
S9Q: 1.89
S1I: 1.69
F2P: 0.869
R5C: 1.19
L8T: 0.815
E3P: 1.13
L10V: 1.27
N6I: 1.31
S1D: 1.89
F2A: 0.637
S1H: 1.57
E12I: 2.44

For quick reference, copied from above (block 4):
AAATTACTAAGTTGTCACTCGACTTACCCCGTATGA: 3310 a.u.
GTCTTGTCTCATTGGCTCGTGGGTGTCCCCACTTCA: 11600 a.u.
CTTGGGCCCTATCGGCACGCTAAAGATGCTTGTGGA: 6170 a.u.
TTTCCTCTCCTTCTCTGCGTGCTTTCAAATCTAATT: 8630 a.u.
GTCCCAAGCAGCTTCATCGTGATGGTCTCCTTCAGG: 4850 a.u.
AAAGCGGTAATTTGGCTCGTGGGTGCAGATATCTAT: 11100 a.u.
TTGTTTTTTGTGTGGCATGTGCAGCGAGCGATGAGT: 12100 a.u.
GTCTTGTCTCATTGGCACGTGGGTGTCCCCACTTCA: 19100 a.u.
GCACTTCGCATTAAGCGCGTGAAACTATTGGCTCTC: 4940 a.u.
CGGGGTTAAGTTTGCGCTGTGGGTGGCTTGCAGCAG: 4360 a.u.
